Published values from different studies.
Lines come from different studies, so protocols differ.
Method: steady-state kinetics
B1: LigI D246A (Sphingobium sp. SYK-6, UniProt O87170); chain TNDERILSWNETPSKPRYTPPPGAIDAHCHVFGPMAQFPFSPKAKYLPRDAGPDMLFALRDHLGFARNVIVQASCHGTDNAATLDAIARAQGKARGIAVVDPAIDEAELAALHEGGMRGIRFNFLKRLVDDAPKDKFLEVAGRLPAGWHVVIYFEADILEELRPFMDAIPVPIVIDHMGRPDVRQGPDGADMKAFRRLLDSREDIWFKATCPDRLDPAGPPWDDFARSVAPLVADYADRVIWGTAWPHPNMQDAIPDDGLVVDMIPRIAPTPELQHKMLVTNPMRLYWSEEM
B2: SULT2A1 (Homo sapiens, UniProt Q06520); chain MSDDFLWFEGIAFPTMGFRSETLRKVRDEFVIRDEDVIILTYPKSGTNWLAEILCLMHSKGDAKWIQSVPIWERSPWVESEIGYTALSETESPRLFSSHLPIQLFPKSFFSSKAKVIYLMRNPRDVLVSGYFFWKNMKFIKKPKSWEEYFEWFCQGTVLYGSWFDHIHGWMPMREEKNFLLLSYEELKQDTGRTIEKICQFLGKTLEPEELNLILKNSSFQSMKENKMSNYSLLSVDYVVDKAQLLRKGVSGDWKNHFTVAQAEDFDKLFQEKMADLPRELFPWE
B3: enzyme K299V (Mus musculus, UniProt P08680); chain DRKSKIVQRAAPEVQEDVKTFKTDLLSTMDSTTRSHSFPSFQEPEQTEGAVPHLIQNNMTGSQAFGYDQFFRDKIMEKKQDHTYRVFKTVNRWANAYPFAQHFSEASMASKDVSVWCSNDYLGISRHPRVLQAIEETLKNHGAGAGGTRNISGTSKFHVELEQELAELHQKDSALLFSSCFVANDSTLFTLAKLLPGCEIYSDAGNHASMIQGIRNSGAAVFVFRHNDPGHLKKLLEKSDPKTPKIVAFETVHSMDGAICPLEELCDVAHQYGALTFVDEVHAVGLYGARGAGIGERDGIMHKLDIISGTLGKAFGCVGGYIASTRDLVDMVRSYAAGFIFTTSLPPMVLSGALESVRLLKGEEGQALRRAHQRNVKHMRQLLMDRGFPVIPCPSHIIPIRVGNAALNSKICDLLLSKHSIYVQAINYPTVPRGEELLRLAPSPHHSPQMMENFVEKLLLAWTEVGLPLQDVSVAACNFCHRPVHFELMSEWERSYFGNMGPQYVTTYA
B4: HCT R356E (Coleus scutellarioides, UniProt E8ZAP2); chain MKIHVRDSTLVRPSAATPAVSLWNSNVDLVVPNFHTPSVYFYRPSGADNFFDTAVMKAALGRALVSFYPMAGRLKRDEDGRVEIDCNAEGVLFVEAESDGTVDDYGDFAPSLELRRLIPAVDYSQGISAYPLLVLQVTFFKCGGVSLGVGMQHHAADGFSGLHFINTWSDMARGLDITLPPFIDRTLLSARDPPQPQFKHVEYQPPPAMKTYEPAETVVSIFKLTKDQLTTLKAKSKEDGNTTTYSSYEMLSGHVWRCTCLARGLPEEQETKLYIATDGRSRLQPQLPPGYFGNVIFTATPLAVAGDLGSKPVWYAASKIHDALARMDNDYLRSALDFLELQPDLKALVRGAHTFECPNLGITSWVRLPIHDADFGWGRPIFMGPGGIAYEGLSFVLPSPTNDGSLSVAISLQAEHMKLFEKLLYQI
B5: ycjS (Escherichia coli, UniProt P77503); chain MKSAMTSSPLRVAIIGAGQVADKVHASYYCTRNDLELVAVCDSRLSQAQALAEKYGNASVWDDPQAMLLAVKPDVVSVCSPNRFHYEHTLMALEAGCHVMCEKPPAMTPEQAREMCDTARKLGKVLAYDFHHRFALDTQQLREQVTNGVLGEIYVTTARALRRCGVPGWGVFTNKELQGGGPLIDIGIHMLDAAMYVLGFPAVKSVNAHSFQKIGTQKSCGQFGEWDPATYSVEDSLFGTIEFHNGGILWLETSFALNIREQSIMNVSFCGDKAGATLFPAHIYTDNNGELMTLMQREIADDNRHLRSMEAFINHVQGKPVMIADAEQGYIIQQLVAALYQSAETGTRVEL
B6: enzyme C48S (Schizosaccharomyces pombe, UniProt Q9Y7P0); chain MFTGLVEAIGVVKDVQGTIDNGFAMKIEAPQILDDCHTGDSIAVNGTSLTVTDFDRYHFTVGIAPESLRLTNLGQCKAGDPVNLERAVLSSTRMGGHFVQGHVDTVAEIVEKKQDGEAIDFTFRPRDPFVLKYIVYKGYIALDGTSLTITHVDDSTFSIMMISYTQSKVIMAKKNVGDLVNVEVDQIGKYTEKLVEAHIADWIKKTQA
B7: Mj-MAT W387F/Y323W (Methanocaldococcus jannaschii, UniProt Q58605); chain MRNIIVKKLDVEPIEERPTEIVERKGLGHPDSICDGIAESVSRALCKMYMEKFGTILHHNTDQVELVGGHAYPKFGGGVMVSPIYILLSGRATMEILDKEKNEVIKLPVGTTAVKAAKEYLKKVLRNVDVDKDVIIDCRIGQGSMDLVDVFERQKNEVPLANDTSFGVGYAPLSTTERLVLETERFLNSDELKNEIPAVGEDIKVMGLREGKKITLTIAMAVVDRYVKNIEEYKEVIEKVRKKVEDLAKKIADGYEVEIHINTADDYERESVYLTVTGTSAEMGDDGSVGRGNRVNGLITPFRPMSMEAASGKNPVNHVGKIWNILANLIANDIAKLEGVKECYVRILSQIGKPINEPKALDIEIITEDSYDIKDIEPKAKEIANKFLDNIMEVQKMIVEGKVTTF
B8: enzyme (UniProt A0A2T5C445); chain MKSKQLNTDLFKVQAKQQIRLKNYDPASCNGFANRKEAEHQLKQDIKELADLQYQLYAENKRSVLIVFQAMDAAGKDGSIRHVFSGLNPQGCKVYSFKSPSANELDHDYLWRHYNKLPPRGEIGIFNRSHYENVLITRVHPEFLLNENLPDVHATNDITTEFWERRYRQIRDFEQTLTENGTTIIKFFLHLSKDEQKKRFMERIRKPAKNWKFSSADIRERQYWDDYQHAYEQAMRATSTEEAPWYIIPADNKWFTHVAIGNIIVETLQQMNIQMPEISSEEKDALKKAKKKLQNE
UniProt J9VYP5, sequence (whole entry, looked up): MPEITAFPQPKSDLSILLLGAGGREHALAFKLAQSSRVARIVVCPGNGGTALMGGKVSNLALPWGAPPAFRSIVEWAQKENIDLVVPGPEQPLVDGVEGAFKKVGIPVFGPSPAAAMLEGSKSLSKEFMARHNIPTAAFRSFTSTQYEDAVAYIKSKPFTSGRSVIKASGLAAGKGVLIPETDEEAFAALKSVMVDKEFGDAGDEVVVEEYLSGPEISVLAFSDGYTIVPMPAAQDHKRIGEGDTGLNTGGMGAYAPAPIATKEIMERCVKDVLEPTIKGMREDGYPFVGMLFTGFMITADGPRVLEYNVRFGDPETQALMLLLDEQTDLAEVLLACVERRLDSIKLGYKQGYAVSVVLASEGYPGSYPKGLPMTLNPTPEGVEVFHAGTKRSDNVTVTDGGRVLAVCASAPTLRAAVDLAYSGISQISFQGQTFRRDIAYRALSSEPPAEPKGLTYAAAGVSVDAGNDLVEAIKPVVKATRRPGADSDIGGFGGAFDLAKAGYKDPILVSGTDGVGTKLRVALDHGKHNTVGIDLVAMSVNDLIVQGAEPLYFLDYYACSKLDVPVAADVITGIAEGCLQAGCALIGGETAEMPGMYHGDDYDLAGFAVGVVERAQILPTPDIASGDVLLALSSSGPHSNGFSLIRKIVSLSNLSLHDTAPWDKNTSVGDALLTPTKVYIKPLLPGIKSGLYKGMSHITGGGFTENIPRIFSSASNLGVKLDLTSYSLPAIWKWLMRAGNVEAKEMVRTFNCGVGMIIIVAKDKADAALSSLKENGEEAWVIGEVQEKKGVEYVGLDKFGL
UniProt Q9LUE2, sequence (whole entry, looked up): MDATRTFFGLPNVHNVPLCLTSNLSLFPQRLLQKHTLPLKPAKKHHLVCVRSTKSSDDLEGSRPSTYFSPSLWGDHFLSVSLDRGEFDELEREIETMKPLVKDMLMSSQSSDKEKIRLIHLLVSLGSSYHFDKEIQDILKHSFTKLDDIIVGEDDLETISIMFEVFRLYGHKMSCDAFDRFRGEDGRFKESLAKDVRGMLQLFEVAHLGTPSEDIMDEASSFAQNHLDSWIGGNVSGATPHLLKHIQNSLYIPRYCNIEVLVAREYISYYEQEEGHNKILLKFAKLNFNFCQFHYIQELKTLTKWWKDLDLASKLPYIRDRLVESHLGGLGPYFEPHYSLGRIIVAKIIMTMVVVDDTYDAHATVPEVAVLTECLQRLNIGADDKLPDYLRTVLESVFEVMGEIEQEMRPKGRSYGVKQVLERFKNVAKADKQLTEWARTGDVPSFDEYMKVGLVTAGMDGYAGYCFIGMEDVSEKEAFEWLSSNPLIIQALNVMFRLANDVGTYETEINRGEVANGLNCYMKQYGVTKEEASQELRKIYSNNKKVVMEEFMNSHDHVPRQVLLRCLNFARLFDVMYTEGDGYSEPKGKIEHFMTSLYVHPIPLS
UniProt O43704, sequence (whole entry, looked up): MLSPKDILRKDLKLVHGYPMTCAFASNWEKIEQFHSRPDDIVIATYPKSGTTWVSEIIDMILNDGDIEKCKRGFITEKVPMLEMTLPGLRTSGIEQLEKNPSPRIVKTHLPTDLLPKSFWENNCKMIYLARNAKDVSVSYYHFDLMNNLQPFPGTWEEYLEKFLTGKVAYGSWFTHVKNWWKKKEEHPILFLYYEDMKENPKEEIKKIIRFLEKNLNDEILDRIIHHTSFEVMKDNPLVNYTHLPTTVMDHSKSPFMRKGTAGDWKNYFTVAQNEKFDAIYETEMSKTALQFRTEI

Substance | substrate | pH | temperature | notes | with | Km [µM]
B1 (LigI D246A) | O=C(O)c1cc(C(=O)O)oc(=O)c1 | pH 8.25 | 30 °C |  |  | 116
B2 (SULT2A1) | C[C@]12CC[C@H](O)CC1=CC[C@@H]1[C@@H]2CC[C@]2(C)C(=O)CC[C@@H]12 | pH 7.4 | 25 °C |  |  | 1.3
GAR synthetase (Cryptococcus neoformans, UniProt J9VYP5) | Nc1ncnc2c1ncn2[C@@H]1O[C@H](COP(=O)(O)OP(=O)(O)OP(=O)(O)O)[C@@H](O)[C@H]1O | pH 8 | 37 °C | apparent |  | 52
SULT1B1 (Homo sapiens, UniProt O43704) | Nc1ncnc2c1ncn2[C@@H]1O[C@H](COP(=O)(O)OS(=O)(=O)O)[C@@H](OP(=O)(O)O)[C@H]1O | pH 7.4 | 37 °C |  | 1-naphthol | 1.97
AtTPS18 (Arabidopsis thaliana, UniProt Q9LUE2) | CC(C)=CCC/C(C)=C/CC/C(C)=C/CC/C(C)=C/CC/C(C)=C/COP(=O)(O)OP(=O)(O)O | pH 7.5 | 30 °C | product C7 measured | Mg2+ 10 mM | 4.79
B3 (enzyme K299V) | CC(C)(COP(=O)(O)OP(=O)(O)OC[C@H]1O[C@@H](n2cnc3c(N)ncnc32)[C@H](O)[C@@H]1OP(=O)(O)O)[C@@H](O)C(=O)NCCC(=O)NCCSC(=O)CCC(=O)O | pH 7.5 | 37 °C |  |  | 23
B4 (HCT R356E) | NCCc1ccc(O)c(O)c1 | pH 8 |  | pseudo-first-order | p-coumaroyl CoA | 41600
B5 (ycjS) | CO[C@H]1O[C@H](CO)[C@@H](O)C(=O)[C@H]1O | pH 7 | 30 °C |  | NADH 0.3 mM | 950
B6 (enzyme C48S) | Cc1nc2c(=O)[nH]c(=O)nc-2n(C[C@H](O)[C@H](O)[C@H](O)CO)c1C | pH 7.2 | 37 °C | apparent |  | 1.1
B7 (Mj-MAT W387F/Y323W) | CSCC[C@H](N)C(=O)O |  | 55 °C |  | ATP 2.5 mM, methionine 0.05-1 mM | 130
B8 (enzyme) | Nc1nc2c(ncn2[C@@H]2O[C@H](COP(=O)(O)O)[C@@H](O)[C@H]2O)c(=O)[nH]1 | pH 8 | 30 °C |  |  | 3600

A few entries again:
Substance | substrate | pH | temperature | notes | with | Km [µM]
SULT1B1 (Homo sapiens, UniProt O43704) | Nc1ncnc2c1ncn2[C@@H]1O[C@H](COP(=O)(O)OS(=O)(=O)O)[C@@H](OP(=O)(O)O)[C@H]1O | pH 7.4 | 37 °C |  | 1-naphthol | 1.97
